Measured values from different studies.
Every numbered part comes from another study and shows a few of its results, in no order.

Study 1 — technique: universal PBM; form: double-stranded DNA, one strand shown; matrix: in vitro; tested at: 600 nM; reading: higher = stronger binding
Target: Sal-like protein 4, full length isoform A (SALL4, Homo sapiens, UniProt Q9UJQ4, residues 1-1053)
Chain of UniProt Q9UJQ4 (whole entry, looked up): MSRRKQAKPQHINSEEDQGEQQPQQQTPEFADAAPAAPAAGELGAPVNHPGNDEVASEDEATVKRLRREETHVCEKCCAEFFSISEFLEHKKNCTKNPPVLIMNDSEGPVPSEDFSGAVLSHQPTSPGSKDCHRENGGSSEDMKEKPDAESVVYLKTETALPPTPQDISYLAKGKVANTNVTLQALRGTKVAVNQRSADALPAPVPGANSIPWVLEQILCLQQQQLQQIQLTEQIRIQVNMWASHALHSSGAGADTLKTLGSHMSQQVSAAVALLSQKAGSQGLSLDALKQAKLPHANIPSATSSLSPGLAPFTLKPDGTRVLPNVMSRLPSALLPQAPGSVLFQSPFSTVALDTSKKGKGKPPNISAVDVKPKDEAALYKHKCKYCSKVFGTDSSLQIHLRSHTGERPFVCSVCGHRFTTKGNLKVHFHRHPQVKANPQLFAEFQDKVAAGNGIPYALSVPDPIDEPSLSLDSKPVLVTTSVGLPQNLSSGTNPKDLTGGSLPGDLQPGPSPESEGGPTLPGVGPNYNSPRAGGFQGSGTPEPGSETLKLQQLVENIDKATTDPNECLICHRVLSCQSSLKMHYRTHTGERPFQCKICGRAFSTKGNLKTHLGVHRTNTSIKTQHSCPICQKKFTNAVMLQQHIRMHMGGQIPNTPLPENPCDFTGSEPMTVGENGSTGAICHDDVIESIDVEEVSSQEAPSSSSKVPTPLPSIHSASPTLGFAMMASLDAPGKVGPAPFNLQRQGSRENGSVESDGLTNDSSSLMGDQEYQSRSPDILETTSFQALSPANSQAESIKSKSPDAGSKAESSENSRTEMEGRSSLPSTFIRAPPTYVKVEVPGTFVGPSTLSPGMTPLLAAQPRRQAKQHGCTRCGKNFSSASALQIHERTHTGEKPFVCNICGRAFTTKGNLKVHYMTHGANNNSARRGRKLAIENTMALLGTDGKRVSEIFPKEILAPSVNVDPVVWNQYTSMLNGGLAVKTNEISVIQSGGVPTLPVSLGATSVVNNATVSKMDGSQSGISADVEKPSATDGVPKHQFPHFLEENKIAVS
Notes: 8-mer, flanks averaged, mean of replicates
| Strand | E-score |
| --- | --- |
| CCCCAGAC | -0.216 |
| AACTGTAC | 0.0631 |
| AGTGTGAT | -0.0342 |
| GCGCCGTA | -0.243 |
| AAAACCGC | -0.153 |
| AATCTTCC | -0.106 |
| CAGGTCCA | -0.115 |
| CATTTCAG | 0.118 |
| GTGGTCCA | -0.189 |
| GATCGATA | 0.247 |
| CCGTCTGA | -0.228 |
| CTGCCCAG | -0.348 |
| CGTCACAG | 0.00686 |
| CGATGGAG | -0.174 |
| ACACCAAC | -0.127 |
| AAGAAAGA | 0.143 |
| AGATCAAG | 0.0471 |
| GTACCGGA | -0.193 |
| GGAGTGTA | -0.122 |
| TGTCTCAA | 0.0642 |
| CTCCAGGC | -0.248 |

Study 2 — technique: protein binding microarray; form: double-stranded DNA, one strand shown; matrix: in vitro; tested at: not given; baseline: not given; reading: higher = stronger binding
Target: Histone acetyltransferase KAT6A, both winged helices, GST fusion (KAT6A, Homo sapiens, UniProt Q92794, residues 1-181)
Notes: 8-mer, flanks averaged, mean of 2 arrays, mostly near background
Target sequence (chain): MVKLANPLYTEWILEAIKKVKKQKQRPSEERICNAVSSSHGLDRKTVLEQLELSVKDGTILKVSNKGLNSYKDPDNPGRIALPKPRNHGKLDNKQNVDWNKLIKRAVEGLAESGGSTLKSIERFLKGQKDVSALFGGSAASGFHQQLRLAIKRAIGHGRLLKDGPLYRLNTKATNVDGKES
| Strand | E-score |
| --- | --- |
| ATCATTTG | -0.134 |
| AATACGCC | 0.115 |
| AAAACCAC | 0.0053 |
| TCTGCTCA | -0.172 |
| GATCTCCC | -0.0102 |
| AGCTCACC | -0.152 |
| ATTTGGAG | -0.27 |
| CGATCGAC | 0.045 |
| AACCGCTA | 0.146 |
| CCGGCGAA | 0.256 |
| AAAGGCGA | -0.0518 |
| TACGACCA | -0.081 |
| AGTAATGC | 0.019 |
| CGGACACA | 0.177 |
| GCCAGTCC | 0.0399 |
| AAATCTCT | -0.044 |
| CCTGAGCA | -0.089 |
| ATTTAGGC | -0.0898 |
| ATCAAGAT | -0.0743 |
| TATAAATA | 0.0118 |
| ATAATCCA | -0.102 |
| CAATGTCG | 0.0507 |
| CCTCCCAG | -0.188 |
| ACCTCAGC | -0.0721 |
| TGTCAAAA | -0.0655 |

Study 3 — technique: RNA Bind-n-Seq; form: RNA; matrix: in vitro; tested at: 100 nM; baseline: input RNA pool; reading: higher = stronger binding
Target: RING finger protein unkempt homolog, zinc fingers 1-6, SBP tag (UNK, Homo sapiens, UniProt Q9C0B0, residues 30-357)
Chain of UniProt Q9C0B0 (30-357, looked up): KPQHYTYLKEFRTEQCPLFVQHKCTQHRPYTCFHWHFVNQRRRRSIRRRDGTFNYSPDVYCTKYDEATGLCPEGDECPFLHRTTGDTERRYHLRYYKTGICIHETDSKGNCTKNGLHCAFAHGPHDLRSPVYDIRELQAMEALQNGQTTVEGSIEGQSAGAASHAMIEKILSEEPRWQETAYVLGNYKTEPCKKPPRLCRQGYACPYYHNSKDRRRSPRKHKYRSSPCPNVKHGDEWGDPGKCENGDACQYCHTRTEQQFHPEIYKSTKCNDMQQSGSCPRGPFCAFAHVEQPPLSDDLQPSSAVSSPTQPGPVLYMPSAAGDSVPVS
Notes: RNA with constant flanks, vertebrate orthologous sites, ends assumed
All sequences stand within: GGGAGUUCUACAGUCCGACGAUC … CAACAGAGGAUUGAGCAUCA
| Strand | bound/input enrichment |
| --- | --- |
| ACCGCAUUAGCACCCUGCCAGCCCAGCAACCUCUCCGUGCACAGCUUAAAUGUUACGGUCUAGCUAGAUUUUUAUUUAAAAUAUGAAAAACUGCUUUUCCCAAGACAUUUUUUAAAGGAA | 0.517 ratio |
| UUUCAGGGACGCUUUGAUGUAAAAAUUGAAGUUAAGAGCUGAUCACAAGCUCUUUCCCACUAGCCAUUUAAAGAGUUUAAAAAGAUUCAGAAACAAAAAACCUACUAGUCUUGAACAAAC | 0.811 ratio |
| GCACAUGCCGCUAUCACCAAAAGUAAACUACCACUUUUCAAAUUUCAUUCAGAGCUGUUUUAGUGUUUCCUAUUCCCCACCUUUCCCACUACUUUCAAUGAUGUUUUCCUUCUGACACUU | 2.11 ratio |
| ACUGUUGUUAAGCACUGUGUUCCAGACCGUGUCUGACUUAGUGUAAUCUAGGAGAUUUUAUAGUUUUAUUUUAAUGAAACCCUGAUUGACGCACAGCAGUGGAGAGAACAGCGUCUUUUA | 1.49 ratio |
| UGAAAUAUGUAGAAAACAAUUUUCACUGAAUUCAUUGUCAAGUUUUUCCCUAGAAUUUUUUUUUGAAUUUUUGUUUUAUACAAGCUUGCUGUGUUGGUCAUUAUUAACCCACAAUUAAGA | 0.327 ratio |
| ACUUAAAAUCUUAAAGAGAUUAUACUGGGAUCUGGACAUUGAUUUUGCAGGGUCAGGCCGUUGGAUAGUGUUGCUGUGUUGUCUUAUGUUUUUUAAGAUCUGUGUACUUUGUCCAAAGUU | 0.595 ratio |
| CAGCAGAUUCUCUUAUAGGGAGAGCUGCACAUAUUGCAGUUCUUGAUUCAGAAAUAUUUUUAGAAAAAUUCUUUCUUGUUGCUGCCCUAAAAUACUUUCAGUAGAGAAAAACAUUGUAAG | 0.507 ratio |
| UGGACACAGGUGCCCUGUGGAGCCCAGGAGGGAGACGGUCCUUGACUUCUGACCUUGACAUGGUAGAUAGGUGUGUGGUUUUUUUAUUUAAAGACAUUAAGACUUAACCCACUAAAAUUU | 0.357 ratio |
| GUCCCUCAGUGACAGCGUGCCCUCCGUGGCCGAGUCCCACUCGAGUCACUUUUCAGAGUUCAGUUGUUCUGACCUGGAAAGCAUGAAGACUUCCUGUAGCCACGGGUCCAGUGACUACCA | 0.146 ratio |
| CCAAGCUAAAGGAGUUAACCUCUUUAUUUUUGUAUCAAAGAAAGAUUAUUUUGAAAUGAUUAGGGUUUUUACACAACUCUGAAAUUUGUUGCUUUUGUAAACAGAUCGUUUGGUCUUAGG | 0.27 ratio |
| CUAUUGUGUGAAACAUGUCUACCCAGGAAAGUAACACUCUAUAAAUACUGUUAAACAAUUUAGCUAUAUUAUUUUUAAGUAUUAUAUUGUAUGUCAAGCAGUUAAAAUGAAUUUCAGAGU | 0.394 ratio |

Study 4 — technique: RNA Bind-n-Seq; form: RNA; matrix: in vitro; tested at: 1 µM; notes: whole 134-nt RNA, ends assumed; together with: 150 mM KCl; baseline: input library; reading: higher = stronger binding
Target: Ras GTPase-activating protein-binding protein 1, RRM domain (G3BP1, Homo sapiens, UniProt Q13283)
Chain of UniProt Q13283 (whole entry, looked up): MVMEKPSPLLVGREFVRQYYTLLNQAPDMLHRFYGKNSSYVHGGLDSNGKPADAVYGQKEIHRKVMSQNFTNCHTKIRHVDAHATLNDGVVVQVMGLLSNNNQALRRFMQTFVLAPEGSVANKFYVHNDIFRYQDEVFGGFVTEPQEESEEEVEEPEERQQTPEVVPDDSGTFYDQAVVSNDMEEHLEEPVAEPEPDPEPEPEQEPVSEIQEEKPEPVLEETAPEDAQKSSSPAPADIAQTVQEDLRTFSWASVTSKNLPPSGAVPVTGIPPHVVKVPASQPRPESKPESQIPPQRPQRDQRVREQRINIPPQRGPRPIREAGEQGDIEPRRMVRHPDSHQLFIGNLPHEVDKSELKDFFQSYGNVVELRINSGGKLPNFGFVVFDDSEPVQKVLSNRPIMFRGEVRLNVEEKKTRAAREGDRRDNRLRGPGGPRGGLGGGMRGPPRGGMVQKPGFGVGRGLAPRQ
All sequences stand within: GGGAGUUCUACAGUCCGACGAUC … UGGAAUUCUCGGGUGUCAAGG
| Strand | log2 enrichment |
| --- | --- |
| AGUCCUGUGCUACACAUCGUAUGUACCGAAUCGGGAAAAGGGGAAAAGGGGAAAAGGAAAGUAUUAUGUUACGCCGUUCGGAUCUGCACU | -0.0286 |
| GCAGGAAGUAAAAACAAAUGGAAAUGCUUCGGAUAGUGGCAGGGGUGGGCGUUGCUAAGGAAAGGGUGGGAUGGGAGUGGGUAAAGAGUU | 0.816 |
| GUCCUGUGCUACACAUCGUAUGUACCGAAUCGGAAAAAGGGGAAAAAGGGAAAAAGGGGAAAGUAUUAUGUUACGCCGUUCGGAUCUGCA | 0.228 |
| CACAGACAACACGCACCCACACAGACACAGAAAAAAGGGGUUGGGAUGGGGACAGGGUGCACAGCAGGGCGGGGUAGGACCCCAGCCCCU | -0.141 |
| ACCAUGCAGGUGGGCAUCUUUGGGAAGUGUGGCAAGGGGGGGAUAGGGAGGGGGGUAACACUUUGGGAACAGGUGGUCCCAGGUCGUUUC | -0.461 |
| CUCAAGUCCUGUGCUACACAUCGUAUGUACCGAAUCGGAAGGAAGGGAAGGGGAAAGUAUUAUGUUACGCCGUUCGGAUCUGCACUUCCA | -0.232 |
| UGGGAGGUGGAUUUUGUUUAUUUUUUUAGCUCAUUUCCAGGGGUGGGAAUUUUUUUUUAAUAUGUGGCAUGAAUAAAGUUGUUUUUGAAA | 1.94 |
| GUCCUGUGCUACACAUCGUAUGUACCGAAUCGGGGUUUUGGGGUUUUGGGGUUUUGGGGAAAGUAUUAUGUUACGCCGUUCGGAUCUGCA | 1.91 |
| UCCUCAAGUCCUGUGCUACACAUCGUAUGUACCGAAUCGGUGGGUGGUGGGGAAAGUAUUAUGUUACGCCGUUCGGAUCUGCACUUCCAG | -0.0777 |
| CAAGUCCUGUGCUACACAUCGUAUGUACCGAAUCGGGAGGGUUUUUUUGGGAGGGAAAGUAUUAUGUUACGCCGUUCGGAUCUGCACUUC | 0.677 |

For quick reference, copied from above (study 3):
| Strand | bound/input enrichment |
| --- | --- |
| CAGCAGAUUCUCUUAUAGGGAGAGCUGCACAUAUUGCAGUUCUUGAUUCAGAAAUAUUUUUAGAAAAAUUCUUUCUUGUUGCUGCCCUAAAAUACUUUCAGUAGAGAAAAACAUUGUAAG | 0.507 ratio |
| ACUUAAAAUCUUAAAGAGAUUAUACUGGGAUCUGGACAUUGAUUUUGCAGGGUCAGGCCGUUGGAUAGUGUUGCUGUGUUGUCUUAUGUUUUUUAAGAUCUGUGUACUUUGUCCAAAGUU | 0.595 ratio |
| CCAAGCUAAAGGAGUUAACCUCUUUAUUUUUGUAUCAAAGAAAGAUUAUUUUGAAAUGAUUAGGGUUUUUACACAACUCUGAAAUUUGUUGCUUUUGUAAACAGAUCGUUUGGUCUUAGG | 0.27 ratio |
| UGAAAUAUGUAGAAAACAAUUUUCACUGAAUUCAUUGUCAAGUUUUUCCCUAGAAUUUUUUUUUGAAUUUUUGUUUUAUACAAGCUUGCUGUGUUGGUCAUUAUUAACCCACAAUUAAGA | 0.327 ratio |
